Measurements gathered from unrelated publications.
Lines come from different studies, so protocols differ. “And” joins repeats or separate records; there may be more than shown. ± marks the error that the study gave.
HSD3B1: 3 beta-hydroxysteroid dehydrogenase/Delta 5-->4-isomerase type 1 (HSD3B1, Homo sapiens, UniProt P14060)
Sequence of UniProt P14060 (whole entry, looked up): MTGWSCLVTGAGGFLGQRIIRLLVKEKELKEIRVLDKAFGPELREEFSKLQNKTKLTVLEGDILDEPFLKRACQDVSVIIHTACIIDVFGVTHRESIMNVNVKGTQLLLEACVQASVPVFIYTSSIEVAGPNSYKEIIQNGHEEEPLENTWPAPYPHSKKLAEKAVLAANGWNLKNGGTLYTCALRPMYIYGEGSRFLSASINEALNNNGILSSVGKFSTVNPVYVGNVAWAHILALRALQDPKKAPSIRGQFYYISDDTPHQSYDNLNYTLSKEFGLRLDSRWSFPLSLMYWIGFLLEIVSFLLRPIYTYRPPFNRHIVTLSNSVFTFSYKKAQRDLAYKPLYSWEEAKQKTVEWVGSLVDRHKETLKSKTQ
DCPS: m7GpppX diphosphatase (DCPS, Homo sapiens, UniProt Q96C86)
Sequence of UniProt Q96C86 (whole entry, looked up): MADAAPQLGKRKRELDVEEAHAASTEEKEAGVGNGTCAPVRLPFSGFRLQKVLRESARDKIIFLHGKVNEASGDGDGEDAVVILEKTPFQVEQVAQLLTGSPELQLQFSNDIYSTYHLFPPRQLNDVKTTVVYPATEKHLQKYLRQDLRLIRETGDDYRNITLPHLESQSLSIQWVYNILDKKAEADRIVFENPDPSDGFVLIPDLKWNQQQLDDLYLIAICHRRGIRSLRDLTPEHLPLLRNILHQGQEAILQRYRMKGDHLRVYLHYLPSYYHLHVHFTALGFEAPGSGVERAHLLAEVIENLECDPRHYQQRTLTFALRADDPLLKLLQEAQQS
CASP8: Caspase-8 (CASP8, Homo sapiens, UniProt Q14790)
Sequence of UniProt Q14790 (whole entry, looked up): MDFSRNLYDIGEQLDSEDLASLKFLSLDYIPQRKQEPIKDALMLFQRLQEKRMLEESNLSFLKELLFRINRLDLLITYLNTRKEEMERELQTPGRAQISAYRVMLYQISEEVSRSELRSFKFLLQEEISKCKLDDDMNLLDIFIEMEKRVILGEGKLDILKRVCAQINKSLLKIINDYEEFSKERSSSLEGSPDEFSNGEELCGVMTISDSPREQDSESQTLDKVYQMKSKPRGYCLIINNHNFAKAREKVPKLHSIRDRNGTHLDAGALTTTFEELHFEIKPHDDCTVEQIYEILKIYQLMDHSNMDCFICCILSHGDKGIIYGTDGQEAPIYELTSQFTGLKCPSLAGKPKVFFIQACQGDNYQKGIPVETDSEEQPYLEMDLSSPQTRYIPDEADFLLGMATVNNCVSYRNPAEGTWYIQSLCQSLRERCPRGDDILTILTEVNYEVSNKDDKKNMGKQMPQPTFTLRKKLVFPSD
MAPT PHF6* peptide: Microtubule-associated protein tau, PHF6* peptide (MAPT, Homo sapiens, UniProt P10636)
CASP10: Caspase-10 (CASP10, Homo sapiens, UniProt Q92851)
Sequence of UniProt Q92851 (whole entry, looked up): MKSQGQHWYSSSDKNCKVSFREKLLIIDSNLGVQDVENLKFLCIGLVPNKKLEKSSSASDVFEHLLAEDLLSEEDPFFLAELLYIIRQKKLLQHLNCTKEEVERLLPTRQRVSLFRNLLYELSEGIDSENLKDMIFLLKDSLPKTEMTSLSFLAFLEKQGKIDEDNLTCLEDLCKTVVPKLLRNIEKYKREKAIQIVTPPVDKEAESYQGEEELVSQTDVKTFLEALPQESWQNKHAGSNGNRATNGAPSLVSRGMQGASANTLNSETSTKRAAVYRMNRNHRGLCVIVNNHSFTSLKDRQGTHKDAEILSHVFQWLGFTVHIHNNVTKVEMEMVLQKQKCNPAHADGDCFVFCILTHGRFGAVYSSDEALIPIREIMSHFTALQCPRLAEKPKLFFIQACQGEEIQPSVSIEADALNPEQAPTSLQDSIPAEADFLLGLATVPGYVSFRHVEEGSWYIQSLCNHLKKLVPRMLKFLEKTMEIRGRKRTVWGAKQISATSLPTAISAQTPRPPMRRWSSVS
T1: DNA, abasic bulge, mismatch; chain GTCCAGTGCAACG; chain CGTTGCGGCTGGAC
Sequence of UniProt Q9Y4E8 (whole entry, looked up): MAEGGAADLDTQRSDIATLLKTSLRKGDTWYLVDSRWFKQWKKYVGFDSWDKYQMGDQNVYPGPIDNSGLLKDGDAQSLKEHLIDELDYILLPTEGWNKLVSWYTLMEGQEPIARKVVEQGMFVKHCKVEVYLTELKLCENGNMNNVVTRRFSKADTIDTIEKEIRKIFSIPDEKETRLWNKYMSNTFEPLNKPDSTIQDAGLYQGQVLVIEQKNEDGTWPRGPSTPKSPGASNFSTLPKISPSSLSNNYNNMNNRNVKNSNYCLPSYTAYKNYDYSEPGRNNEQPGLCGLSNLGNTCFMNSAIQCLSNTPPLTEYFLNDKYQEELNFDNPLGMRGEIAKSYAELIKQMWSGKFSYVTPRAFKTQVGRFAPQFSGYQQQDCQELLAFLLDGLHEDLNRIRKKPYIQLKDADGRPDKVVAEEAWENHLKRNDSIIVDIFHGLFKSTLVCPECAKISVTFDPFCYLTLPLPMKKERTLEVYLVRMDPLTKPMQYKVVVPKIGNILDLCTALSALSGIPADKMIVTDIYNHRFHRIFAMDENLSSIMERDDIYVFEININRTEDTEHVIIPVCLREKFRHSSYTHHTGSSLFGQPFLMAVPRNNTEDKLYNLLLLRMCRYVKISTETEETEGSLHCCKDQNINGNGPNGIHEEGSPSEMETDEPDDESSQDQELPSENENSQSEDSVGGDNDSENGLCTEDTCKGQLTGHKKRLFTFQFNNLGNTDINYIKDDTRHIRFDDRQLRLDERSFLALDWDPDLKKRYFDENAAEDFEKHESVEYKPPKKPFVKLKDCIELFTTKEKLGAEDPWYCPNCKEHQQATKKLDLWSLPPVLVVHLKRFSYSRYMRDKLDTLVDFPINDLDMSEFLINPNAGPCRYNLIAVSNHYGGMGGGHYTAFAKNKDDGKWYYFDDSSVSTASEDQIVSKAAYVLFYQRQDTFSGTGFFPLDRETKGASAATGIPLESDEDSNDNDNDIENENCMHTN
Sequence of UniProt Q92633 (whole entry, unmodified, looked up): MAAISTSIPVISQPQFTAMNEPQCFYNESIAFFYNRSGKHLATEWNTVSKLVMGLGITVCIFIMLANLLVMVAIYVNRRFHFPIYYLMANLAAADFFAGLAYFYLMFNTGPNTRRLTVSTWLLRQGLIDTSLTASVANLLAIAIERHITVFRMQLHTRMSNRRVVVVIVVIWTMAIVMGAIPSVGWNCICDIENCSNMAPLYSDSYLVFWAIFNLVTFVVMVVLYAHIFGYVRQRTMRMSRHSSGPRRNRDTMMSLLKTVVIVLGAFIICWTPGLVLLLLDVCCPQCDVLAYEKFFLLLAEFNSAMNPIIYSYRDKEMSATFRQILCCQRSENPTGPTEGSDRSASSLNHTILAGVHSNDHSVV
Sequence of UniProt O15164 (whole entry, looked up): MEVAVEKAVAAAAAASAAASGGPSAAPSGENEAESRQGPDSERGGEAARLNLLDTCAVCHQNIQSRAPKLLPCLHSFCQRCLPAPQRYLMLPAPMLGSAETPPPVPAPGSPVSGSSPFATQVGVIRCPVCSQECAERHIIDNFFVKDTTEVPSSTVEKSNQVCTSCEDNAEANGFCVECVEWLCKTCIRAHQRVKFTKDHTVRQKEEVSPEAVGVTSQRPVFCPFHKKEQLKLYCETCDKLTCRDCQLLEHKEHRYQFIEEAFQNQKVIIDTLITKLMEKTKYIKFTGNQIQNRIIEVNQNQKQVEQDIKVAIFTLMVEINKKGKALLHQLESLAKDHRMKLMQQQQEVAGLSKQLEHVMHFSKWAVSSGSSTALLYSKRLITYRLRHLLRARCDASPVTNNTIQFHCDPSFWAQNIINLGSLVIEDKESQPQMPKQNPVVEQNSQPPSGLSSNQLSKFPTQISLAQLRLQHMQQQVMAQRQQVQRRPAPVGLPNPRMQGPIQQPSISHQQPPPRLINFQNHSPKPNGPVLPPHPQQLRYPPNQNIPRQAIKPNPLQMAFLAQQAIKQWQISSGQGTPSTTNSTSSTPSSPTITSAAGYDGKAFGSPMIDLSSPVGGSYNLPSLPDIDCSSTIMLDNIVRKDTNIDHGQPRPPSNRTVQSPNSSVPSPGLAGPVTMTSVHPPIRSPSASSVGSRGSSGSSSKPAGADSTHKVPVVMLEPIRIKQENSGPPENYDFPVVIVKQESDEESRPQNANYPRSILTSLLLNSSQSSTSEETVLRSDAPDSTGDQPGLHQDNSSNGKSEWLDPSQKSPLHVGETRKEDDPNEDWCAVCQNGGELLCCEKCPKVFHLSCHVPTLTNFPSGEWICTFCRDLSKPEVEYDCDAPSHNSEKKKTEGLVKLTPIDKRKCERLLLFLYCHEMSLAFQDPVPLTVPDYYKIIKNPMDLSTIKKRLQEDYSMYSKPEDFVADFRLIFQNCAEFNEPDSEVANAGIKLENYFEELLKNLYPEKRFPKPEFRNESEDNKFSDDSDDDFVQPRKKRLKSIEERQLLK
Sequence of UniProt Q96JM7 (whole entry, looked up): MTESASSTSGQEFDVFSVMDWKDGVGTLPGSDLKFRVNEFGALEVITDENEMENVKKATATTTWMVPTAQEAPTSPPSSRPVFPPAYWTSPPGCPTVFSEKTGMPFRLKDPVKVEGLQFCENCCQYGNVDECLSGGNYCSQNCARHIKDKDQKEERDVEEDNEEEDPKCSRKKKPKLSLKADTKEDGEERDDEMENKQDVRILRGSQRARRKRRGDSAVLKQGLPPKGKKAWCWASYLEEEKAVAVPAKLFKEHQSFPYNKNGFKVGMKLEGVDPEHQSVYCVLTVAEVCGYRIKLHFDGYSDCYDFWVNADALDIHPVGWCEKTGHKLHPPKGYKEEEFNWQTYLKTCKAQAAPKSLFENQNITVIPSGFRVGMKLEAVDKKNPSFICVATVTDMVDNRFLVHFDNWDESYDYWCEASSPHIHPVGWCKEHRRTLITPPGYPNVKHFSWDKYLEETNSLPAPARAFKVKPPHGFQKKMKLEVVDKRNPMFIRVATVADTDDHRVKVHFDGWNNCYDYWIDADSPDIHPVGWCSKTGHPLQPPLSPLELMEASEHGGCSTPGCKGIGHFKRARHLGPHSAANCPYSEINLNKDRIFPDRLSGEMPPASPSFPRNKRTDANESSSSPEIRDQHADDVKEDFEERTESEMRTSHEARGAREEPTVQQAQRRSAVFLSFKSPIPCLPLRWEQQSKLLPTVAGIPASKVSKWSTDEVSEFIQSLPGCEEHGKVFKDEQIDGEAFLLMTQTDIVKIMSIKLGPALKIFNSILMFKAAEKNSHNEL

O=C(NO)c1ccc(Cn2c3c(c4cc(Br)ccc42)SC(c2ccccc2)C3)s1 (racemic) — interatomic distance (Histone deacetylase 8 (Schistosoma mansoni, UniProt A5H660); X-ray crystallography; ligand-Lys20 side chain, C3-NZ): 3.95 Å
COCCOc1cc(-c2coc3cc(O)ccc3c2=O)ccc1Cl — DHEA metabolism (HSD3B1; [3H]-DHEA conversion; LNCaP; 0.1 µM, normalized to protein, unit not given; relative to: vehicle): 1.86
Cc1cn(CC(=O)N(CCNC(=O)CN(CCNC(=O)CN(CCNC(=O)CN(CCNC(=O)CN(CCNC(=O)CN(CCNC(=O)CN(CCNC(=O)CN(CCN)C(=O)Cn2cnc3c(=O)[nH]c(N)nc32)C(=O)Cn2cnc3c(N)ncnc32)C(=O)Cn2cc(C)c(=O)[nH]c2=O)C(=O)Cn2cnc3c(=O)[nH]c(N)nc32)C(=O)Cn2cc(C)c(=O)[nH]c2=O)C(=O)Cn2cnc3c(=O)[nH]c(N)nc32)C(=O)Cn2cnc3c(N)ncnc32)CC(=O)NCCN(CC(=O)NCCOCCOCC(N)=O)C(=O)Cn2cnc3c(N)ncnc32)c(=O)[nH]c1=O — ΔS (complementary DNA; duplex formation, UV melting curve fit; PBS; 1 µM): -186 ± 6.2 cal/mol/K
Fc1ccc(Nc2nc(NC3CCCCC3)c3ccccc3n2)cc1F — maximal inhibition (ADRB2 (Homo sapiens, UniProt P07550, Q170L); β-arrestin2 recruitment, antagonist, BRET; mutant Q170L; relative to: isoprenaline maximal response): -5.4%
CC(=O)N1c2ccc(-c3ccc(CNC(=O)c4cn5cc(-c6cnc(N)nc6)nc(N6CCOCC6)c5n4)cc3)cc2CC[C@@H]1C — remaining binding (Transcription intermediary factor 1-alpha, PHD-bromodomain (TRIM24, Homo sapiens, UniProt O15164); BROMOscan; 10 µM, PHD-bromodomain construct): 86%
CO[C@@H]1[C@H](O)[C@@H](COP(=O)(O)OP(=O)([O-])C(F)(F)P(=O)(O)OP(=O)(O)OC[C@H]2O[C@@H](n3cnc4c(=O)[nH]c(N)nc43)[C@H](O)[C@@H]2O)O[C@H]1n1c[n+](C)c2c(O)nc(N)nc21 — hydrolysis (DCPS; substrate, HPLC; concentration not given, 120 min): 15.7 ± 1.9%
N#Cc1ccccc1-c1coc2cc(O)ccc2c1=O — DHEA metabolism (HSD3B1; [3H]-DHEA conversion; LNCaP; 0.1 µM, normalized to protein, unit not given; relative to: vehicle): 0.17
CCN(CC)C(=O)c1ccc(O)c(OC)c1 — bound ligand fraction (Heat shock protein HSP 90-alpha, N-terminal domain (HSP90AA1, Homo sapiens, UniProt P07900); binding, ligand-observed NMR titration; 9.80 µM, ligand to protein ratio 366): 0.22
CC(=O)N[C@@H](C(=O)N[C@@H](CCCC(=O)O)C(=O)N[C@@H](CCC1CCCCC1)C(=O)N[C@@H](CC(=O)O)C(=O)COC(=O)c1c(C)cccc1C)C1CCCCC1 — kinact/KI (CASP8; enzyme activity, inhibitor): 966000 M⁻¹ s⁻¹
CC[C@H](C)[C@H](NC(=O)[C@@H](NC(=O)[C@H](CCCCN)NC(=O)[C@@H](NC(=O)CNC(=O)[C@@H](N)CCCNC(=N)N)[C@@H](C)O)C(C)C)C(=O)N[C@@H](CC(C)C)C(=O)N[C@@H](Cc1c[nH]cn1)C(=O)N[C@@H](CC(C)C)C(N)=O — ThT fluorescence (MAPT PHF6* peptide; fibril formation, ThT fluorescence; 0.1-fold of peptide, pH 7.4, added: Ac-PHF6* 25 µM, heparin; relative to: untreated): 100 ± 3%
CC(=O)N[C@@H](CC(=O)O)C(=O)N[C@@H](Cc1ccc(I)cc1)C(=O)N[C@@H](C)C(=O)N[C@@H](CC(=O)O)C(=O)COC(=O)c1c(C)cccc1C — kinact/KI (CASP8; enzyme activity, inhibitor): 34000 M⁻¹ s⁻¹
Cc1cc(=O)oc2c(F)c(OP(=O)(O)O)c(F)cc12 — Km (PTPN11 (Homo sapiens, UniProt Q06124); dephosphorylation, substrate; basal enzyme): 2540 ± 40 µM
CCN(CC)C(CO)c1cccc2c(C)c(C)oc12 (centres unmarked) — fold change (LPAR1 (Homo sapiens, UniProt Q92633, W210A); G-protein dissociation, agonist, NanoBiT; HEK-293T; 100 nM, W210A mutant; relative to: baseline luminescence): 0.795 and 0.989 and 0.966 and 0.855 and 0.823 and 0.769
C#CCCCCNC(=O)c1ccc(N(C(=O)C=C)c2ccc(Br)cc2)cc1 — reactivity ratio (ADP-ribosylhydrolase ARH3 (Homo sapiens, UniProt Q9NX46); mass spectrometry profiling, refers to: ADPRHL2; H460 cell lysate; 100 µM over 10 µM, UniProt Q9NX46; relative to: high over low concentration): 1.86
CC(=O)N1[C@H](C(=O)N[C@@H](CC(C)C)C(=O)N[C@@H](C)C(=O)N[C@@H](CC(=O)O)C(=O)COC(=O)c2c(C)cccc2C)C[C@@H]2CCCC[C@@H]21 — kinact/KI (CASP8; enzyme activity, inhibitor): 422000 M⁻¹ s⁻¹
CCCCCCCCCCCCC/C=C/C=O — isoTOP-ABPP competition ratio (Mannose-1-phosphate guanylyltransferase regulatory subunit alpha (GMPPA, Homo sapiens, UniProt Q96IJ6); competitive isoTOP-ABPP, refers to: GMPPA cysteine peptide; Ramos soluble proteome; 100 µM, added: iodoacetamide probe; relative to: DMSO over compound-treated, higher = stronger cysteine blockade): 0.95
CC(=O)N1[C@H](C(=O)N[C@H](C(=O)N[C@@H](Cc2c[nH]cn2)C(=O)N[C@@H](CC(=O)O)C(=O)COC(=O)c2c(C)cccc2C)C(C)(C)C)C[C@@H]2CCCC[C@@H]21 — kinact/KI (CASP10; enzyme activity, inhibitor): 4300 M⁻¹ s⁻¹
CC[C@H](C)[C@H](NC(=O)[C@@H](NC(=O)[C@H](CCCCN)NC(=O)[C@@H](N)[C@@H](C)O)C(C)C)C(=O)N[C@@H](CC(C)C)C(=O)N[C@@H](Cc1c[nH]cn1)C(N)=O — ThT fluorescence (MAPT PHF6* peptide; fibril formation, ThT fluorescence; 0.1-fold of peptide, pH 7.4, added: Ac-PHF6* 25 µM, heparin; relative to: untreated): 108 ± 2%
COC(=O)Nc1ccc2ccc(CNCc3ccc4ccc(NC(=O)OC)nc4n3)nc2n1 — binding (T1, DNA, abasic bulge, mismatch; CSI-TOF mass spectrometry): no binding
C=CC(=O)N1C[C@H](C)N(c2nc(OC[C@@]34CCCN3C[C@H](F)C4)nc3c(F)c(-c4ccc(F)c5sc(N)c(C#N)c45)c(C(F)(F)F)cc23)C[C@H]1C — dissociation rate constant koff (GTPase KRas, GDP-bound (KRAS, Homo sapiens, UniProt P01116, Q61H); SPR): 0.000801 ± 0.00014 s⁻¹
C[n+]1cn(C2OC(COP(=O)(O)OP(=O)([O-])C(Cl)(Cl)P(=O)(O)O)C(O)C2O)c2nc(N)nc(O)c21 (centres unmarked) — hydrolysis (DCPS; substrate, HPLC; concentration not given, 15 min): 0.2 ± 0.2%
CCCCCC(O)/C=C/C=O (centres unmarked) — isoTOP-ABPP competition ratio (Bleomycin hydrolase (Homo sapiens, UniProt Q13867); competitive isoTOP-ABPP; Ramos soluble proteome; 100 µM, 60 min, added: iodoacetamide probe; relative to: DMSO over compound-treated, higher = stronger cysteine blockade): 1.1
C=CS(=O)(=O)c1ccc(Nc2nc(OCC3CCCCC3)c3nc[nH]c3n2)cc1 — kon (Gasdermin-D (GSDMD, Homo sapiens, UniProt P57764); binding, BLI): 1510 M⁻¹ s⁻¹
O=c1cc(Nc2ccccc2)c2ccccc2o1 — agonist activity (ADRA1A (Homo sapiens, UniProt P35348); intracellular Ca2+ mobilization, agonist; COS-7; 500 µM; relative to: 3 µM ionomycin): 4.44 ± 2.84%
Cc1cnc2nc1Nc1cccc(c1)COC/C=C/COCc1cc(ccc1OCCN1CCOCC1)N2 — percent of control (CDK13 (Homo sapiens, UniProt Q14004); concentration not given, gene name CDC2L5): 76%
O=C1c2sc(-c3ccc(N4CCC(F)C4)nc3F)nc2CCN1c1cccnc1 (centres unmarked) — SPR response (TAR DNA-binding protein 43, aggregated (TARDBP, Homo sapiens, UniProt Q13148); binding, surface plasmon resonance; brain-derived TDP-43 aggregates; 300 nM): 1.66 RU
N#CN1CC[C@H](C(=O)Nc2nc3c(s2)CN(C(=O)Cn2cc(COCCOCCOCCOCCNC(=O)CCCC[C@@H]4SC[C@@H]5NC(=O)N[C@@H]54)nn2)CC3)C1 — iBAQ abundance (USP15 (Homo sapiens, UniProt Q9Y4E8); probe binding, affinity probe, neutravidin pull-down LC-MS/MS; HEK293T, cell lysate; 5 µM, 1 h, single replicate, unit not given; higher = more pulled down): 1.82e+06 and 1.19e+06 and 2.42e+06
CC[C@H](NC(=O)[C@@H](NC(=O)[C@@H](NC(C)=O)C(C)C)C(C)(C)C)C(=O)N[C@@H](CC(=O)O)C(=O)COC(=O)c1c(C)cccc1C — kinact/KI (CASP10; enzyme activity, inhibitor): 259000 M⁻¹ s⁻¹
Cn1cc(-c2cc(N3CCCCS3(=O)=O)ccc2N[C@H]2CC[C@H](C)CC2)c2cc[nH]c2c1=O (stereo in doubt) — remaining binding (KAT2A (Homo sapiens, UniProt Q92830); binding, competition with immobilised ligand; 1 µM): 100%
CC(=O)N[C@@H](CCC(N)=O)C(=O)N[C@@H](CC(C)C)C(=O)N1CCC[C@H]1C(=O)N[C@@H](CC(=O)O)C(=O)COC(=O)c1c(C)cccc1C — kinact/KI (CASP8; enzyme activity, inhibitor): 44000 M⁻¹ s⁻¹
C#CCOC(=O)[C@@]1(C)C=C(C(=O)OC(C)(C)C)C(=O)CC1 — normalized kinase activity (MAPK1 (Homo sapiens, UniProt P28482); enzyme activity, D-SENSOR; 133.3 µM, mean of replicates): 0.7
CC(=O)N[C@@H](Cc1ccc(N)cc1)C(=O)N[C@@H](CCCC(=O)O)C(=O)N[C@@H](CC1CCCCC1)C(=O)N[C@@H](CC(=O)O)C(=O)COC(=O)c1c(C)cccc1C — kinact/KI (CASP10; enzyme activity, inhibitor): 97600 M⁻¹ s⁻¹
CNC(=N)NCCC[C@H](NC(=O)[C@H](CC(C)C)NC(=O)NNC(=O)[C@H](Cc1ccccc1)NC(=O)[C@@H](NC(=O)[C@H](CC(N)=O)NC(=O)[C@@H]1C[C@@H](O)CN1C(=O)[C@@H](Cc1ccc(O)cc1)NC(C)=O)[C@@H](C)O)C(=O)N[C@@H](Cc1c[nH]c2ccccc12)C(N)=O — Emax (KiSS-1 receptor (KISS1R, Homo sapiens, UniProt Q969F8, Q122A); inositol phosphate, agonist; HEK293): 9.18%
CC(=O)N[C@@H](CC(=O)O)C(=O)N[C@@H](CO)C(=O)N[C@H](C(=O)N[C@@H](CC(=O)O)C(=O)COC(=O)c1c(C)cccc1C)C(C)C — kinact/KI (CASP8; enzyme activity, inhibitor): 82000 M⁻¹ s⁻¹
O=C(c1ccc(C(=O)N2CCC(N3CCCCC3)CC2)cc1)N1CCC(N2CCCCC2)CC1 — diffusion coefficient (Lethal(3)malignant brain tumor-like protein 3, MBT domains (Homo sapiens, UniProt Q96JM7); FRAP; human cells; 1 µM): 0.124 µm2/s
